Assay results from different studies.
A part holds a random share of what one study measured. “And” joins repeats or separate records; there may be more than shown.
Sequence of UniProt O95747 (whole entry, looked up): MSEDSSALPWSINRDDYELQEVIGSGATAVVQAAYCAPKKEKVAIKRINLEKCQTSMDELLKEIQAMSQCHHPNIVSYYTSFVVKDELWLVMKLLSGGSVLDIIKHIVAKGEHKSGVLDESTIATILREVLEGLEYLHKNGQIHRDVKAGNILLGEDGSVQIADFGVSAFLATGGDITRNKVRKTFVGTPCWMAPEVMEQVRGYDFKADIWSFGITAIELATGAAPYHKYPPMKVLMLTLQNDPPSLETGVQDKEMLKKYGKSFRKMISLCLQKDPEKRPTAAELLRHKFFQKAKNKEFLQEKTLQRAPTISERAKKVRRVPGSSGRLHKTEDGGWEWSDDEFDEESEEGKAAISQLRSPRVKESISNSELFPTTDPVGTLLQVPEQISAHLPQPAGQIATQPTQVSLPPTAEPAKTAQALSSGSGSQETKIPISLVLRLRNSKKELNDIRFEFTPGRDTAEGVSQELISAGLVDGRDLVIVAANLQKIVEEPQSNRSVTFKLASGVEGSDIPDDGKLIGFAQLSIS
Sequence of UniProt Q8TDC3 (whole entry, looked up): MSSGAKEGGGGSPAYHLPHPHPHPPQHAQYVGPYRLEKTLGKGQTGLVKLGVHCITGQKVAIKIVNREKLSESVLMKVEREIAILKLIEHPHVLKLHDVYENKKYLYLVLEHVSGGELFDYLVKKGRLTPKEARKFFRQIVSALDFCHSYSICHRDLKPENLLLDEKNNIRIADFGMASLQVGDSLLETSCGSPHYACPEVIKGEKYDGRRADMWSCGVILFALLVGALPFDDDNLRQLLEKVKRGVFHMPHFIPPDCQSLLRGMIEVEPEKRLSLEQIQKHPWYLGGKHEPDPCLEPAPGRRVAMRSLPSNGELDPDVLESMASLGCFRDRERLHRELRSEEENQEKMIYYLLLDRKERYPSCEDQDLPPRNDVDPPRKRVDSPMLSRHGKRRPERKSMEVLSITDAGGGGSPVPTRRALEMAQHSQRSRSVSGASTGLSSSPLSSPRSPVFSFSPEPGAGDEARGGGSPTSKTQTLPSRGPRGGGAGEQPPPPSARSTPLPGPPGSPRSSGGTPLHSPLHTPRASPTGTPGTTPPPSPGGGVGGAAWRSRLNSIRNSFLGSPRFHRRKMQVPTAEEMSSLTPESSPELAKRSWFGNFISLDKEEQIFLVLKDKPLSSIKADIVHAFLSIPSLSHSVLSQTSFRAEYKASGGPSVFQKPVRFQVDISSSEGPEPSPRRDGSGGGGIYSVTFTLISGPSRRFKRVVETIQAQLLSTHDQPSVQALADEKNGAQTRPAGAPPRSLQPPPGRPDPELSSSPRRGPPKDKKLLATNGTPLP
Sequence of UniProt P46734 (whole entry, looked up): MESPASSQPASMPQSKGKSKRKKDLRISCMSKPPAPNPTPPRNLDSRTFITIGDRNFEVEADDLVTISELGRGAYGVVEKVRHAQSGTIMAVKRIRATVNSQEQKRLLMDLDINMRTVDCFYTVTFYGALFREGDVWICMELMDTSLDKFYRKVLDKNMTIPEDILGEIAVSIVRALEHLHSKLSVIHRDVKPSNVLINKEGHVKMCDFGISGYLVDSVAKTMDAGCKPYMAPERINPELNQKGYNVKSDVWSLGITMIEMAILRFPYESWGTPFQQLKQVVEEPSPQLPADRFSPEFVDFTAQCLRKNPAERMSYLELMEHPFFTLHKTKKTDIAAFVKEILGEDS

Sample 1 — method: competition with immobilised ligand; concentration: 1 µM; quantity: remaining binding
Compound: NS(=O)(=O)c1cc(NC(=O)C2(c3ccccc3Cl)CC2)ccc1Oc1cccc(Cl)c1
PAK3 (Homo sapiens, UniProt O75914); cell-free assay: 64%
MAP2K3 (Homo sapiens, UniProt P46734); cell-free assay: 84%
GRK7 (Homo sapiens, UniProt Q8WTQ7); cell-free assay: 100%
MAP3K10 (Homo sapiens, UniProt Q02779); cell-free assay: 100%
ROS1 (Homo sapiens, UniProt P08922); cell-free assay: 82%
ULK3 (Homo sapiens, UniProt Q6PHR2); cell-free assay: 83%
TAOK2 (Homo sapiens, UniProt Q9UL54); cell-free assay: 82%
PRKD1 (Homo sapiens, UniProt Q15139); cell-free assay: 65%
PIK3CA (Homo sapiens, UniProt P42336, C420R); cell-free assay: 100%
Non-receptor tyrosine-protein kinase TYK2, JH2 (TYK2, Homo sapiens, UniProt P29597); cell-free assay: 80%
PIK3CG (Homo sapiens, UniProt P48736); cell-free assay: 100%
RET (Homo sapiens, UniProt P07949, V804L); cell-free assay: 70%
Tyrosine-protein kinase ABL1, phosphorylated (ABL1, Homo sapiens, UniProt P00519, E255K); binding: 72%
EPHA3 (Homo sapiens, UniProt P29320); cell-free assay: 100%
GRK4 (Homo sapiens, UniProt P32298); cell-free assay: 100%
EGFR (Homo sapiens, UniProt P00533); cell-free assay: 75%
COQ8B (Homo sapiens, UniProt Q96D53); cell-free assay: 63%
STK33 (Homo sapiens, UniProt Q9BYT3); cell-free assay: 100%
NUAK2 (Homo sapiens, UniProt Q9H093); cell-free assay: 80%
SIK3 (Homo sapiens, UniProt Q9Y2K2); cell-free assay: 87%
TIE1 (Homo sapiens, UniProt P35590); cell-free assay: 85%
CASK (Homo sapiens, UniProt O14936); cell-free assay: 89%
MARK2 (Homo sapiens, UniProt Q7KZI7); cell-free assay: 100%
TLK1 (Homo sapiens, UniProt Q9UKI8); cell-free assay: 99%
OXSR1 (Homo sapiens, UniProt O95747); cell-free assay: 100%

Sample 2 — observed: binding; concentration: 1 µM; quantity: remaining binding
SMILES: CN1CCN(C(=O)c2ccc(NC(=O)Nc3ccc(N(C)c4ccnc(Nc5ccc(CS(C)(=O)=O)cc5)n4)cc3)cc2)CC1
RIPK1 (Homo sapiens, UniProt Q13546): 100%
PRKD3 (Homo sapiens, UniProt O94806): 100%
STK24 (Homo sapiens, UniProt Q9Y6E0): 47%
BRSK1 (Homo sapiens, UniProt Q8TDC3): 100%
NEK10 (Homo sapiens, UniProt Q6ZWH5): 94%
BRSK2 (Homo sapiens, UniProt Q8IWQ3): 100%
WEE2 (Homo sapiens, UniProt P0C1S8); competition with immobilised ligand: 99%
EGFR (Homo sapiens, UniProt P00533); competition with immobilised ligand: 100%
OXSR1 (Homo sapiens, UniProt O95747): 98%
RIPK4 (Homo sapiens, UniProt P57078): 57%
Mast/stem cell growth factor receptor Kit, autoinhibited (KIT, Homo sapiens, UniProt P10721): 35%

Sample 3 — observed: enzyme activity; action: inhibitor; concentration: 0.5 µM; relative to: control; quantity: remaining activity
Target: Serine/threonine-protein kinase D3 (PRKD3, Homo sapiens, UniProt O94806)
Residues (O94806 1-890): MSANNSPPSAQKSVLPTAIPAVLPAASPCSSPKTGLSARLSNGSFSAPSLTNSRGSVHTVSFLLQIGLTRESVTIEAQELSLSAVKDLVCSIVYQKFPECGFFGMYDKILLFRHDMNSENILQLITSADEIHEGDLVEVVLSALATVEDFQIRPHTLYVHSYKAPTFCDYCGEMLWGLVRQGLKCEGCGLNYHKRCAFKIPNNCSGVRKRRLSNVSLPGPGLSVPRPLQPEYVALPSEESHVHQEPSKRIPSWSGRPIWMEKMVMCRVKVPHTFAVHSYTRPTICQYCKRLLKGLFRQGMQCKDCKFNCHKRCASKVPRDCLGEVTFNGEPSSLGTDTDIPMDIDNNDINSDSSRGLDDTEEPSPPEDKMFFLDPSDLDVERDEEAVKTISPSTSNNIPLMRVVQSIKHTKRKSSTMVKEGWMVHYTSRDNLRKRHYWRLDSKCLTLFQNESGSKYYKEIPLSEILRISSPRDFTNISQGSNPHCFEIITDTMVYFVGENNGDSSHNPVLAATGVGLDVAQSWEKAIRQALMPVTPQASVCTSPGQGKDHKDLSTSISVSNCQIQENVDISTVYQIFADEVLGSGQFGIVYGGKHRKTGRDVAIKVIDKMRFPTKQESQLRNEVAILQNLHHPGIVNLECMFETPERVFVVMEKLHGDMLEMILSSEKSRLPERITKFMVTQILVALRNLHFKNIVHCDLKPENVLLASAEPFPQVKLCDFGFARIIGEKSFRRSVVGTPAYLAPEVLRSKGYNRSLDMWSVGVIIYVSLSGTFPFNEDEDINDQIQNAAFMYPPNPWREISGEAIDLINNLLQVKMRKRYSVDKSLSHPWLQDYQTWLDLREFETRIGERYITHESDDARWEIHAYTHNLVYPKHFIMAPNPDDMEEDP
Cn1sc(=O)n(Cc2ccccc2)c1=O: 95.9%
Cc1nc(-c2ccccc2)c(-c2ccncc2)o1: 94.3%
COc1ccc(OC)c2c(=S)c3ccccc3[nH]c12: 94.1%
CN(C)c1ccc(C=C2C(=O)Nc3ccccc32)cc1: 99.2%
COc1ccc(CNC(=O)Nc2ncc([N+](=O)[O-])s2)cc1: 93.4%
O=S(=O)(c1cccc2cnccc12)N1CCCNCC1: 65.8%
CO[C@H]1C[C@@H]2CC[C@@H](C)[C@@](O)(O2)C(=O)C(=O)N2CCCC[C@H]2C(=O)O[C@H]([C@H](C)C[C@@H]2CC[C@@H](O)[C@H](OC)C2)CC(=O)[C@H](C)/C=C(\C)[C@@H](O)[C@@H](OC)C(=O)[C@H](C)C[C@H](C)/C=C/C=C/C=C/1C: 95.7%
COc1ccc(C(=O)Nc2sc3c(c2C(N)=O)CCCC3)cc1OC: 103%
Nc1ccc2ncnc(NCCc3ccc(Oc4ccccc4)cc3)c2c1: 98.1%
Cc1cccc(-c2[nH]c(C(C)(C)C)nc2-c2ccc3c(c2)OCO3)n1: 89.3%
O=C(Nc1cccc(Nc2cc(Nc3cccc(C(F)(F)F)c3)ncn2)c1)C1CC1: 96.9%
CNC(=O)c1cc(Oc2ccc(NC(=O)Nc3ccc(Cl)c(C(F)(F)F)c3)cc2)ccn1: 94%
Cn1c2ccccc2c2c3c(c4c5ccccc5n(CCC#N)c4c21)CNC3=O: 7.3%
COc1cc2nccc(Oc3ccc(NC(=S)NC(=O)c4ccccc4C)cc3)c2cc1OC: 97.8%
O=C(CCCc1ccc(-c2ccccc2F)cc1)Nc1ccc(O)cc1: 96.9%
Oc1ccc(-c2nc(-c3ccncc3)c(-c3ccc(F)cc3)[nH]2)cc1: 69.8%

Sample 4 — method: KINOMEscan; notes: unit not given; relative to: DMSO; quantity: remaining binding
SMILES: c1ccc2c(-c3nn4c(-c5ccncc5)nnc4s3)c[nH]c2c1
Target: 1-phosphatidylinositol 3-phosphate 5-kinase (PIKFYVE, Homo sapiens, UniProt Q9Y2I7)
Sequence of UniProt Q9Y2I7 (whole entry, looked up): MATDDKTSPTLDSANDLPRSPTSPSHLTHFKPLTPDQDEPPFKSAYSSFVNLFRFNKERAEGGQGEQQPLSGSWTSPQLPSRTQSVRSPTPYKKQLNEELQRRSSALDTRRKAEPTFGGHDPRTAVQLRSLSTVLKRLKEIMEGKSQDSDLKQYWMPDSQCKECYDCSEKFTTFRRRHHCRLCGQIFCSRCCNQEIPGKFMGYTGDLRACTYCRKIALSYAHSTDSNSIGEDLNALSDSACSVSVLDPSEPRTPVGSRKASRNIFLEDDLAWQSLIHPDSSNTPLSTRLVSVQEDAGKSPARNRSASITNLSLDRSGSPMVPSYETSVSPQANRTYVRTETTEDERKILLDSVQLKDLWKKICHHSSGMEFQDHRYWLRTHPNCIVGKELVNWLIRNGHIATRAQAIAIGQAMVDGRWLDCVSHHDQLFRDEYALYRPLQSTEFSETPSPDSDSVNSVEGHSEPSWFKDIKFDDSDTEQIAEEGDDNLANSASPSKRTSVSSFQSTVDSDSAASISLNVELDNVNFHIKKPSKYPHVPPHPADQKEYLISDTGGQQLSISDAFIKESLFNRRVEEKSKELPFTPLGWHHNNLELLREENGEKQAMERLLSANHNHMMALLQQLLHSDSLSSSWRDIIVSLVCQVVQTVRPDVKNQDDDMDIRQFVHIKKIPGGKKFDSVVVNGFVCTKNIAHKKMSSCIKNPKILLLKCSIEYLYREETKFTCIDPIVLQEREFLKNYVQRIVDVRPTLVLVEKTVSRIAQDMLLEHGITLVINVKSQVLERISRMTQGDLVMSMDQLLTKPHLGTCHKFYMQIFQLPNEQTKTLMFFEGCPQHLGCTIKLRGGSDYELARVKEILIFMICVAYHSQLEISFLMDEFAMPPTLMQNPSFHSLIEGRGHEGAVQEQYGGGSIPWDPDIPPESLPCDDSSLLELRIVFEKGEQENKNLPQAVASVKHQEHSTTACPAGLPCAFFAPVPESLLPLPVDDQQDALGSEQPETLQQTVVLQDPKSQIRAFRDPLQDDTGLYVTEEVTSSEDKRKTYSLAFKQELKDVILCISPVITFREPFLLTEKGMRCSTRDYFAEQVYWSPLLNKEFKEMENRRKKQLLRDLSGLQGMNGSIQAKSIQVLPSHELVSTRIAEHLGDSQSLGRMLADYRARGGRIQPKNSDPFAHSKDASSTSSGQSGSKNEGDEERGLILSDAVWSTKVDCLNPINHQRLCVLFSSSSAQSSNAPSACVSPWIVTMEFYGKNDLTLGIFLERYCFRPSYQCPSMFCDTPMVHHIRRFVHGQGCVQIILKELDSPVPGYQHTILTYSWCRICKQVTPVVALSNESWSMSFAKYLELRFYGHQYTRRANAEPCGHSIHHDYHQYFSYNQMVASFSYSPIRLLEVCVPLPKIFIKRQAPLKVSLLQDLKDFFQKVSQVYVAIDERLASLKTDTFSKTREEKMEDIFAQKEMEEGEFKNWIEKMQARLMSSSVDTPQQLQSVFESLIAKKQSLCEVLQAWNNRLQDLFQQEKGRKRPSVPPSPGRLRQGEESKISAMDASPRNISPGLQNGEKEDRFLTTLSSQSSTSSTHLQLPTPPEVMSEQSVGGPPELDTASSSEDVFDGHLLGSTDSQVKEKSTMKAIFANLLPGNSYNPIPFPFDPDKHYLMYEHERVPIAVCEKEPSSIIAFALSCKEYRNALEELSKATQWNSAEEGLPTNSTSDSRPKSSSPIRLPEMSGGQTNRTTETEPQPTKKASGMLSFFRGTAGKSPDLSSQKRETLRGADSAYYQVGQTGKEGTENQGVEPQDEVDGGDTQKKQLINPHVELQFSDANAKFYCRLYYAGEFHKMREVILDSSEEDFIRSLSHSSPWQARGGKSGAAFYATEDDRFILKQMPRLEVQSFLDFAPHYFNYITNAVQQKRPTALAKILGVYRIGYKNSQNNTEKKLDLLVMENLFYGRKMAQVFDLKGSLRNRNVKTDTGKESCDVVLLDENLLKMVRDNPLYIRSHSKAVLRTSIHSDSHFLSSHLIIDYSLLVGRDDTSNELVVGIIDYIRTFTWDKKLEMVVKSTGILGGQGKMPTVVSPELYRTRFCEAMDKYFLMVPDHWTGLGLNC
3300 nM: 0.00253 and 0.00145
370 nM: 0.00191 and 0.00239
13.6 nM: 0.0028 and 0.00137
4.53 nM: 0.00439 and 0.00484
367 nM: 0.00227 and 0.00161
40.7 nM: 0.00193 and 0.00204
1100 nM: 0.00357 and 0.00171
4.57 nM: 0.00522 and 0.00521

Some of these lines once more (sample 4):
4.53 nM: 0.00439 and 0.00484
367 nM: 0.00227 and 0.00161
40.7 nM: 0.00193 and 0.00204
1100 nM: 0.00357 and 0.00171
4.57 nM: 0.00522 and 0.00521
